# Measured values pooled from the literature.
# Protocols differ between the studies behind these lines. Numbers after ± are the reported error.
Compound,assay,system,conditions,Cmax
CCOC(=O)C1=C[C@@H](OC(CC)CC)[C@H](NC(C)=O)[C@@H](N)C1,non-compartmental analysis,"Sprague-Dawley rats, male, plasma","oral, 30 mg/kg, alone",473 ± 109 ng/mL
O=C(O)CCC(CP(=O)(O)O)C(=O)O (stereo not shown),,"male Wistar rat, plasma","ip, 100 mg/kg",~1200 µM
C=CC[N+]1([C@H]2C[C@H]3[C@@H]4CC[C@H]5C[C@H](O)[C@@H](N6CCOCC6)C[C@]5(C)[C@H]4CC[C@]3(C)[C@H]2OC(C)=O)CCCC1,,"Sprague Dawley rat, plasma","intravenous, dose not given, with: sugammadex 5 mg/kg ODD",278 ng/mL
COC[C@@]12CC[C@H](OC)[C@]34C(C([C@H](OC)[C@H]13)[C@]1(OC(C)=O)[C@H]3[C@@H](OC(=O)c5ccccc5)[C@](O)(C[C@H]34)[C@@H](OC)[C@@H]1O)N(C)C2,,"Sprague-Dawley rat, plasma","oral, dose not given, with NADES in PCW extract",394 ± 49.1 ng/mL
COC(=O)[C@@H]1[C@H]2CC[C@@H](C[C@@H]1O)N2C,LC-MS/MS,"Sprague-Dawley rat, whole blood","intraperitoneal, 20 mg/kg of cocaine",121 ± 7.16 ng/mL
CC(=O)c1c([O-])cc(C)oc1=O.[Na+],,"Wistar rat, male, serum","oral, 200 mg/kg, no CYP inhibitor",220000 ± 17400 ng/mL
CC(=O)O[C@H]1C=C[C@H]2[C@H]3Cc4ccc(O)c5c4[C@@]2(CCN3C)[C@H]1O5,LC-MS/MS,"male Sprague-Dawley rat, whole blood","intraperitoneal, 10 mg/kg of heroin",1110 ± 88.3 ng/mL
CCN1C[C@]2(COC)[C@H](O)C[C@H](OC)[C@@]34[C@@H]5C[C@@]6(O)[C@H](OC(=O)c7ccccc7)[C@@H]5[C@@](OC(C)=O)([C@@H]([C@H](OC)[C@H]23)[C@@H]14)[C@@H](O)[C@@H]6OC,,"Sprague-Dawley rat, plasma","oral, dose not given, with NADES in PCW extract",39.2 ± 8.09 ng/mL
CC(=O)Oc1ccc2c3c1O[C@H]1[C@@H](OC(C)=O)C=C[C@H]4[C@@H](C2)N(C)CC[C@@]341,LC-MS/MS,"Sprague-Dawley rat, male, whole blood","intraperitoneal, 10 mg/kg",9.88 ± 3.41 ng/mL
Cc1ccc(S(=O)(=O)Nc2c(N[C@H]3CC[C@H](NC(=O)Nc4ccc(F)c(Cl)c4)CC3)c(=O)c2=O)cc1,,"rat, plasma","intravenous, 10 mg/kg",11.1 µM
CC(=O)c1c(C)c2cnc(Nc3ccc(C4CCN(CCS(C)(=O)=O)CC4)cn3)nc2n(C2CCCC2)c1=O,,"Sprague-Dawley rat, female","oral, 60 mg/kg, day 28, repeated dosing 4 weeks",6430 ng/mL
COC(=O)[C@H]1[C@@H](OC(=O)c2ccccc2)C[C@@H]2CC[C@H]1N2,LC-MS/MS,"Sprague-Dawley rat, whole blood","intraperitoneal, 20 mg/kg of cocaine",134 ± 10.6 ng/mL
COC[C@]12CN(C)[C@@H]3[C@@H]4[C@H](OC)[C@H]1[C@@]3([C@@H](OC)C[C@H]2O)[C@@H]1C[C@@]2(O)[C@H](OC(=O)c3ccccc3)[C@@H]1[C@]4(OC(C)=O)[C@@H](O)[C@@H]2OC,,"Sprague-Dawley rat, plasma","oral, dose not given, in PCW extract",176 ± 37.1 ng/mL

# Excerpt of the above:
Compound,assay,system,conditions,Cmax
COC[C@@]12CC[C@H](OC)[C@]34C(C([C@H](OC)[C@H]13)[C@]1(OC(C)=O)[C@H]3[C@@H](OC(=O)c5ccccc5)[C@](O)(C[C@H]34)[C@@H](OC)[C@@H]1O)N(C)C2,,"Sprague-Dawley rat, plasma","oral, dose not given, with NADES in PCW extract",394 ± 49.1 ng/mL
CCOC(=O)C1=C[C@@H](OC(CC)CC)[C@H](NC(C)=O)[C@@H](N)C1,non-compartmental analysis,"Sprague-Dawley rats, male, plasma","oral, 30 mg/kg, alone",473 ± 109 ng/mL
